Assay results of several laboratories.
A part holds a random share of what one study measured. Changes are numbered by the printed parent chain.

Set 1 — target: FOSB, bZIP domain (human); technique: DHFR protein complementation; matrix: yeast; reference: wild-type JUN-FOS pair; reading: higher = stronger binding
Notes: single substitutions, most at no-binding floor
Starting sequence: JUN, bZIP domain (human); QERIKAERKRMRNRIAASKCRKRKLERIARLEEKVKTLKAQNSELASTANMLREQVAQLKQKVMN; partner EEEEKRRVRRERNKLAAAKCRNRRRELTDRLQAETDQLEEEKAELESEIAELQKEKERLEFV
`A29N` gave a binding fitness of -0.155 natural log.
`S47M` gave a binding fitness of -0.104 natural log.
`E54I` has a binding fitness of -0.198 natural log.
With `I28S` the binding fitness was -0.304 natural log.
For `L38I`, the binding fitness was -0.689 natural log.
With `A40F` the binding fitness was -0.0822 natural log.
`V35Q` gave a binding fitness of -0.305 natural log.
`L59H` gave a binding fitness of -0.996 natural log.
For `I28H`, the binding fitness was -0.117 natural log.
`L52M` gave a binding fitness of -0.322 natural log.
With `L31D` the binding fitness was -0.702 natural log.

Set 2 — target: CCND3, cyclin fold, Cln2 fusion (human); technique: yeast growth competition, sequencing; matrix: yeast; notes: weak parent motif; reference: not given; reading: higher = stronger binding
Starting sequence: GMNC docking peptide (human); KNAKRNLSSEFAN; partner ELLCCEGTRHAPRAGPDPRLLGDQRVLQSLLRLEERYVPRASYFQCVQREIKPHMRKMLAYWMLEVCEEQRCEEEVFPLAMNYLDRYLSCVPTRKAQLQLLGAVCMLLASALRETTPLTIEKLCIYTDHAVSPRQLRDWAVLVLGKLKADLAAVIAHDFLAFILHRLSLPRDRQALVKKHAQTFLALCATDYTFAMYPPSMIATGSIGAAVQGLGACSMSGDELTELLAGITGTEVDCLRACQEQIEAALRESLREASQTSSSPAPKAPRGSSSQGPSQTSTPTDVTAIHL
`F11D`: “normalised enrichment score” 0.407.
`K4R`: “normalised enrichment score” 0.252.
Under “normalised enrichment score”, `R5N` is recorded as 0.281.
`A3R` — result for “normalised enrichment score”: 0.363.
Under “normalised enrichment score”, `K4D` is recorded as 0.079.
`E10D` — result for “normalised enrichment score”: -0.157.
For `S9W`, “normalised enrichment score” read 0.332.
Under “normalised enrichment score”, `A3N` is recorded as 0.121.
`N6V`: “normalised enrichment score” 0.0877.
Under “normalised enrichment score”, `S8G` is recorded as 0.491.
`N2T`: “normalised enrichment score” 0.34.
`F11T`: “normalised enrichment score” 0.491.
`S8M` — result for “normalised enrichment score”: 0.485.
For `S8V`, “normalised enrichment score” read 0.531.
Under “normalised enrichment score”, `S8F` is recorded as 0.239.
`S8D` — result for “normalised enrichment score”: 0.172.
`E10Q`: “normalised enrichment score” 0.436.
`F11Y`: “normalised enrichment score” 0.223.
`A12C` — result for “normalised enrichment score”: 0.056.
`N2Y` — result for “normalised enrichment score”: 0.346.
For `K4E`, “normalised enrichment score” read -0.329.
For `K4L`, “normalised enrichment score” read 0.338.
For `L7Y`, “normalised enrichment score” read 0.389.
`R5H`: “normalised enrichment score” 0.157.
Under “normalised enrichment score”, `S8I` is recorded as -0.046.

Set 3 — technique: RNA Bind-n-Seq; form: RNA; matrix: in vitro; tested at: not given; reference: input RNA pool; reading: higher = stronger binding
Target: RING finger protein unkempt homolog, zinc fingers 1-6, GST-SBP tag (UNK, Homo sapiens, UniProt Q9C0B0, residues 30-357)
Notes: RNA with constant flanks, human and mouse sites, ends assumed
All sequences stand within: GGGAGUUCUACAGUCCGACGAUC … CAACAGAGGAUUGAGCAUCA
Construct (chain): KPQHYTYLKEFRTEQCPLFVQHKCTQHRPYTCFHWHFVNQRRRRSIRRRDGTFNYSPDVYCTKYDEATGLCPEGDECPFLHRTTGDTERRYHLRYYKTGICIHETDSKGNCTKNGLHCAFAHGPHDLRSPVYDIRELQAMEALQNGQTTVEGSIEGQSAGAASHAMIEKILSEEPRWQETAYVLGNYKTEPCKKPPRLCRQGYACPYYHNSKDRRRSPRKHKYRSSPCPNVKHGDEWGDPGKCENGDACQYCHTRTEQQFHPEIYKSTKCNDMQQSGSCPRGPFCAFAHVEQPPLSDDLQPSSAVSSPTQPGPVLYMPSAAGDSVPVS
The bound/input enrichment of `AGCUUCAUGGUUAAUAAUACAUUUAUGUUGACACCUCCCUAAUCCAGGAAACAUUCACAAACAAGGACUCCCAUAUACAAAUACUUUAGGAAGAGAGAUUUCCCAGGCAGAUAUCACCAA` is reported as 1.68 ratio.
The bound/input enrichment of `CAUGCAUUUUAUUGGGGAGGGGAGGUCAGAAUAAUUCACCCAAAUCUAGUGGUCUUAUUUCAUAGGCUAAUCUGGUUUAUAUUUGCAUUAAAGAUACUGGAGGGCAAUAUUUACAGAGUU` is reported as 1.88 ratio.
The bound/input enrichment of `AUAAAGGAGGAAGAAGACGACAUUUCUGACAAGGGCAGUGAUUCUGAAGAGGAAGAAACCAAUAGAGAUUCUCAGAGUGAGAAAGAAGAUGGUAGUGACAGGGAGUCUGAUAGAGAGCAA` is reported as 1.28 ratio.
`CAUUAAUUUCAACACAUGGGAACACAUGUACAGAAGAUUUUUUUUUUUUUUUUUUUUUUUUUUAGCUACUCGAGAACUUUUCAUAGAUGAACUUUUUAACAAAUGUUUUCAUUUACAGGA` has a bound/input enrichment of 6.49 ratio.
With `GGCUGCUGGUGACUGUCCUGGAGUGGCUGGAGUUCCCGCCGGAGCGCGGCCAGACUAAUUUUAGAAAAUGCCAAGUAGGAAGUUUGUUGAGGGUGAAGUGGUCAGAGGCCGAUGGCCUGG` the bound/input enrichment was 6.49 ratio.
For `AUCCUAAGGUUCAAUGUUCAAGAGAAUGGGUUUUUAUCUUCAUUGCCUUAUUUAGGCUCUUGGUUAUGUAUGAUCCUGUCUGGUCAAGCUGCUGACAAUUUAAGGGCAAAAUGGAAUUUU`, the bound/input enrichment was 0.181 ratio.
`ACAUUUGCCUUGCCUGAAGGACCACUUGGAAAUGAGAAGGAGGAGAUUAUCCAUAUCGCUGAGGAAGAAGCUGUCAUGGAGGAGGAGGAGGAUGAGGAGGAUGAGGAGGAGGAGGAUGAG` has a bound/input enrichment of 0.734 ratio.
`UCCCUCGCCUGUGGUAAACCAACACAGCGGGUUCUUACAAAAGAACCCAAAUCAAAGGAAAUAGAAAAUGGUCAUAUAUUUACAGUUAAUGAUCAAUUCACAUCCAAACUACACAGAGUC` gave a bound/input enrichment of 0.246 ratio.
With `GAUGCUCUGAACAUUGAGACAGCAGUCAAGACCAAAGGAGUGGAUGAGGUCACCAUUGUCAACAUCCUGACAAACCGCAGCAAUGUGCAGAGGCAGGACAUUGCCUUCGCCUAUCAGAGA` the bound/input enrichment was 0.0907 ratio.
The bound/input enrichment of `UCUGAAUCGGAGCAGGCUCUUAAAGGUACCUCUCAGAUUAAGUUACUCUCAUCUGAAGAUAUAGAAGGGAUGCGACUCGUGUGUAGGCUUGCCAGAGAAGUUUUGGACAUUGCUGCUGGG` is reported as 0.289 ratio.
The bound/input enrichment of `UUUUACAAGGGGGACAAAGACAAUAAGUAUGUUCCCUACUCGGAGAGCUUCAGCCAAGUUUUAGAGGAAACUUACAUGCUUGCUGUAACUUUGGAUGAAUGGAAAAAGAAACUGGAAUCU` is reported as 0.131 ratio.

Set 4 — technique: DHFR PCA, deep sequencing; matrix: yeast; added: (+)-ABA 0.39 µM; reference: wild-type fitted maximum; reading: higher = stronger binding
Target: ABI1, truncated, D143A, DHFR fusion (Arabidopsis thaliana)
Notes: methotrexate growth selection, single substitutions
Starting sequence: PYL1, truncated, DHFR fusion (Arabidopsis thaliana); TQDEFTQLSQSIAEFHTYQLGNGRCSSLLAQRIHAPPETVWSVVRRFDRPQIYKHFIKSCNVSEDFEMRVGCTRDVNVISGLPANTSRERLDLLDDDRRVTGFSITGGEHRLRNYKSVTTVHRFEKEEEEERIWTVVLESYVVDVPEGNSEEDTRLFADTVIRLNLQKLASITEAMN; partner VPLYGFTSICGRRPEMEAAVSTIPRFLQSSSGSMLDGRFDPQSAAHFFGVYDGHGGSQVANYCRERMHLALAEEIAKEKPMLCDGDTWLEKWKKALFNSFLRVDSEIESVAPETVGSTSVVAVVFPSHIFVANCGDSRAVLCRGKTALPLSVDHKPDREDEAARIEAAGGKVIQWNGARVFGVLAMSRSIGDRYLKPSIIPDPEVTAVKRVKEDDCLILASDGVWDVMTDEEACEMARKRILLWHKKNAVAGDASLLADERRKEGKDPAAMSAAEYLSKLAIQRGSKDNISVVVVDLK
For `Q7Y`, “relative binding score” read 43.1%.
For `Q7M`, “relative binding score” read 41.7%.
`W41G`: “relative binding score” -3.73%.
For `I172G`, “relative binding score” read -20%.
`D96I`: “relative binding score” -8.06%.
Under “relative binding score”, `V145P` is recorded as -16.8%.
`V137F`: “relative binding score” 2.2%.
For `I172P`, “relative binding score” read -8.13%.
`R46I` — result for “relative binding score”: -9.49%.
`W41L` — result for “relative binding score”: 5.4%.
For `R113V`, “relative binding score” read 37.5%.
`N114A`: “relative binding score” -5.15%.
Under “relative binding score”, `V121P` is recorded as -0.667%.
For `L138C`, “relative binding score” read 2.52%.
Under “relative binding score”, `T86G` is recorded as 15.6%.

Some of these lines once more (set 4):
For `I172P`, “relative binding score” read -8.13%.
`V137F`: “relative binding score” 2.2%.
Under “relative binding score”, `V121P` is recorded as -0.667%.
`D96I`: “relative binding score” -8.06%.
`W41L` — result for “relative binding score”: 5.4%.
